Published values of several laboratories.
Numbers after ± are the reported error.

CS(=O)(=O)n1cc2c(n1)CN([C@H]1CO[C@H](c3cc(F)ccc3F)[C@@H](N)C1)C2  half-life (healthy male human, plasma; oral, 400 mg single, fasted, geometric mean): 42.5 h
Cc1ccc(NC(=O)c2ccc(CN3CCN(C)CC3)cc2)cc1Nc1nccc(-c2cncc(-c3oncc3C)c2)n1  half-life (older healthy human adults, plasma; oral, 37.5 mg single dose, fed, mean): 24.4 h
COC(=O)c1ccc2c(c1)NC(=O)/C2=C(\Nc1ccc(N(C)C(=O)CN2CCN(C)CC2)cc1)c1ccccc1  half-life (healthy human controls matched to Child-Pugh B, plasma; oral, 100 mg single dose, geometric mean): 32.1 h
CCOc1ccc(Cc2cc([C@]34OC[C@](CO)(O3)[C@@H](O)[C@H](O)[C@H]4O)ccc2Cl)cc1  half-life (human, type 2 diabetes, moderate renal impairment, plasma; oral, 15 mg): 22.9 ± 7.4 h
COc1cc2ncnc(Nc3ccc(F)c(Cl)c3)c2cc1OCCCN1CCOCC1  half-life (human, plasma; oral, 250 mg, median): 22.6 h
Cc1cccc(C)c1N(CC(=O)Nc1ccc(-c2ncon2)cc1)C(=O)C1CCS(=O)(=O)CC1  half-life (human male, plasma; oral, 1200 mg single dose, arithmetic mean, alone): 7.3 h
O=c1[nH]c(=O)c(Cc2cccc(C(F)(F)F)c2)c([C@H]2CC[C@H](c3ccccc3)CC2)[nH]1  half-life (human, fasted, plasma; oral, 300 mg single dose, geometric mean): 21.2 h
COCCc1ccc(OCC(O)CNC(C)C)cc1 (stereo not drawn)  half-life (healthy male humans, plasma; oral, at end of metamizole treatment): 3.4 h
C=CC(=O)Nc1cc(Nc2ncc(C(=O)OC(C)C)c(-c3cn(C)c4ccccc34)n2)c(OC)cc1N(C)CCN(C)C  half-life (human, plasma; oral, 160 mg, arithmetic mean, alone): 27.6 h
Cc1nc2c(F)cc(-c3nc(Nc4ccc(CN5CCNCC5)cn4)ncc3F)cc2n1C(C)C  half-life (human patients, plasma; oral, 150 mg, single dose, geometric mean): 16 h
O=CC[C@@H](O)[C@H](O)[C@H](O)CO  half-life (HPLC-fluorescence; human patients, plasma; oral, 45 mg/kg/day, cycle 2): 8.2 ± 1.9 h
CC(C)n1nc(-c2ccc3oc(N)nc3c2)c2c(N)ncnc21  half-life (human patients, plasma; oral, 1 mg single dose, single agent run-in): 9.8 ± 3.7 h
CC[C@@H]1C(=O)N(C)c2cnc(Nc3ccc(C(=O)N[C@H]4CC[C@H](N5CCN(CC6CC6)CC5)CC4)cc3OC)nc2N1C(C)C  half-life (human, plasma; intravenous infusion, 250 mg over 2 h, first infusion, geometric mean): 136 h
CCn1c(C(=O)c2cc(C)cc(C#N)c2)c(C(C)C)c(=O)[nH]c1=O  half-life (healthy humans, plasma; oral, 600 mg once daily, 7 days): 20.7 ± 3.7 h
CCCCC1(CCCC)CN(c2ccccc2)c2cc(SC)c(OCC(=O)N[C@@H](C(=O)NCC(=O)O)c3ccccc3)cc2S(=O)(=O)C1  half-life (LC-MS/MS; human, plasma; oral, 10 mg, single dose, fasted): 5.69 h
N#C[C@@H]1C[C@@H]2C[C@@H]2N1C(=O)[C@@H](N)C12CC3CC(CC(O)(C3)C1)C2  half-life (healthy human subjects, plasma; oral, 10 mg, day 10, mean, with: diltiazem extended-release 360 mg): 3.3 h
C=C(C)[C@@H]1CC[C@]2(NCCN3CCS(=O)(=O)CC3)CC[C@]3(C)[C@H](CC[C@@H]4[C@@]5(C)CC=C(C6=CC[C@@](CF)(C(=O)O)CC6)C(C)(C)[C@@H]5CC[C@]43C)[C@@H]12  half-life (healthy human volunteers; oral, 200 mg, tablet, moderate-fat meal, arithmetic mean): 26.5 h
COC(=O)[C@H](c1ccccc1Cl)N1CCC(S)/C(=C\C(=O)O)C1 (stereo partly drawn)  half-life (human patients, CYP3A4 wt/wt, plasma; 75 mg clopidogrel daily, day 7, median): 0.52 h

A few entries again:
CCCCC1(CCCC)CN(c2ccccc2)c2cc(SC)c(OCC(=O)N[C@@H](C(=O)NCC(=O)O)c3ccccc3)cc2S(=O)(=O)C1  half-life (LC-MS/MS; human, plasma; oral, 10 mg, single dose, fasted): 5.69 h
Cc1nc2c(F)cc(-c3nc(Nc4ccc(CN5CCNCC5)cn4)ncc3F)cc2n1C(C)C  half-life (human patients, plasma; oral, 150 mg, single dose, geometric mean): 16 h
CC(C)n1nc(-c2ccc3oc(N)nc3c2)c2c(N)ncnc21  half-life (human patients, plasma; oral, 1 mg single dose, single agent run-in): 9.8 ± 3.7 h
